Published values of several laboratories.
Each numbered part is a random draw from the data of one study; scales do not carry over between parts. Several values in a cell are separate wells, animals, samples, runs or records.
UniProt P07949, sequence (whole entry, unmodified, looked up): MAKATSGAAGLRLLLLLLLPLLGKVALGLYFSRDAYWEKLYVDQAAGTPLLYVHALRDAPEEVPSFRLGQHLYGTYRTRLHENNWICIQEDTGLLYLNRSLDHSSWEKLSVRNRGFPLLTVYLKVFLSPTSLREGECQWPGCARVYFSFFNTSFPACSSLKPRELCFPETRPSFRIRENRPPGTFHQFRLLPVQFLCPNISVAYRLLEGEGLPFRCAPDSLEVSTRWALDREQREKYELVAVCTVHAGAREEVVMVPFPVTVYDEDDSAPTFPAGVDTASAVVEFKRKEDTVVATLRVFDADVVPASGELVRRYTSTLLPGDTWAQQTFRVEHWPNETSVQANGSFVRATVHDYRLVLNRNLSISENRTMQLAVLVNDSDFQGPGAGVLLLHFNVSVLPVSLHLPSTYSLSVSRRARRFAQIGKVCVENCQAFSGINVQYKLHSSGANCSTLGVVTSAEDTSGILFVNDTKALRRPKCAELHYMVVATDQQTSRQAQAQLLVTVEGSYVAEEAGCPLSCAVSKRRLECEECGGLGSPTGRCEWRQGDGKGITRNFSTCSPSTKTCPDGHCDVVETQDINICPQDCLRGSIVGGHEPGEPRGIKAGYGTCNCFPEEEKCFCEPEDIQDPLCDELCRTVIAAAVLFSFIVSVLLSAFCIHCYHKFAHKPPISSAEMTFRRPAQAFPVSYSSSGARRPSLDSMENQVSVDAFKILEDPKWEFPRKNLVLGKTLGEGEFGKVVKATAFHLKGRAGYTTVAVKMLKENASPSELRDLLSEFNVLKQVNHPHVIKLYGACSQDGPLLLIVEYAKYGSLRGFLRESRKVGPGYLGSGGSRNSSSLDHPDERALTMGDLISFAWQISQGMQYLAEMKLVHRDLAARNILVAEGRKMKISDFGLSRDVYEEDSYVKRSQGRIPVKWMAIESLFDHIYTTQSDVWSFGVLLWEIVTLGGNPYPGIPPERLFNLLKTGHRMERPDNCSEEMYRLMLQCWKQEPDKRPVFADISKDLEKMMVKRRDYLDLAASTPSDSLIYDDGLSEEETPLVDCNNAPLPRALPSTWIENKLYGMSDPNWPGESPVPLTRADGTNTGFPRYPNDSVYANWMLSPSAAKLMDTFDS
UniProt P45983, sequence (whole entry, looked up): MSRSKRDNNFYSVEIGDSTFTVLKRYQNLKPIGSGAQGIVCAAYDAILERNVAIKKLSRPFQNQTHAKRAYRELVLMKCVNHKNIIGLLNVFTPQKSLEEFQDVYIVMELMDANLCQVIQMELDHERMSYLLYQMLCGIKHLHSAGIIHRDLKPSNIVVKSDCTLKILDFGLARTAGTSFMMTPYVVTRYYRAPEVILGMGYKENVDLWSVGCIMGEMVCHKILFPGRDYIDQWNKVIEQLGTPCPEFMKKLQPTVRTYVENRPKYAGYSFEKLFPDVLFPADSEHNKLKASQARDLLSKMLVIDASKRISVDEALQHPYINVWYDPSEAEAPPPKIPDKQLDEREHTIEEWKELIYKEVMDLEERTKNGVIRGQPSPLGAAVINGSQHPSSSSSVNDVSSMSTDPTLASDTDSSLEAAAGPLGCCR
UniProt Q9UF33, sequence (whole entry, looked up): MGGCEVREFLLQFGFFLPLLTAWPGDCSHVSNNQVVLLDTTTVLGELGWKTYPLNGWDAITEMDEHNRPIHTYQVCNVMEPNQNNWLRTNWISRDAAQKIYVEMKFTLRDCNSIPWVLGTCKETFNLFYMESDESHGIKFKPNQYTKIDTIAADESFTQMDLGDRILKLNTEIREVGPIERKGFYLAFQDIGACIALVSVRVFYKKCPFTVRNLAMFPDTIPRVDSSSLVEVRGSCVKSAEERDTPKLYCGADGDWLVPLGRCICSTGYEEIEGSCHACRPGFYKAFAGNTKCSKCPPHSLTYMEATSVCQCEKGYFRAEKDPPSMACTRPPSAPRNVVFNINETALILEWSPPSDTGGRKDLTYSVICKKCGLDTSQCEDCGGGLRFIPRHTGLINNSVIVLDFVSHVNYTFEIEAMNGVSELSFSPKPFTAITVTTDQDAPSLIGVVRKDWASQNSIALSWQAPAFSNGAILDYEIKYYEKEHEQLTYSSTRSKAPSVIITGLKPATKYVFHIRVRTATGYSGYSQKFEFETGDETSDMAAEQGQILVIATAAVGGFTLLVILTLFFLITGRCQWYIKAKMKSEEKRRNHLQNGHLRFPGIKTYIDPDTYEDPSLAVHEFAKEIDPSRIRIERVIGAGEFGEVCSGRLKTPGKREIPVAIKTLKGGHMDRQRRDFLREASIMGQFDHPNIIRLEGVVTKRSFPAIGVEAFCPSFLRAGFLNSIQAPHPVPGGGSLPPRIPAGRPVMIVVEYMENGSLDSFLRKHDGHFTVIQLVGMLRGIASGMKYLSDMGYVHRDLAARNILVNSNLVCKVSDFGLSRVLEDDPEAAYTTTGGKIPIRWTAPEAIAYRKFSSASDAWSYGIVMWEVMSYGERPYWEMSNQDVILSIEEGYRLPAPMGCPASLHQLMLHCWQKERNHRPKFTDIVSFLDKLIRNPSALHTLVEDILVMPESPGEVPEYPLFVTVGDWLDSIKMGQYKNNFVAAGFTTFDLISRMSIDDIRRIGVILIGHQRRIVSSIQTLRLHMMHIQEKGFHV
UniProt Q9BWU1, sequence (whole entry, looked up): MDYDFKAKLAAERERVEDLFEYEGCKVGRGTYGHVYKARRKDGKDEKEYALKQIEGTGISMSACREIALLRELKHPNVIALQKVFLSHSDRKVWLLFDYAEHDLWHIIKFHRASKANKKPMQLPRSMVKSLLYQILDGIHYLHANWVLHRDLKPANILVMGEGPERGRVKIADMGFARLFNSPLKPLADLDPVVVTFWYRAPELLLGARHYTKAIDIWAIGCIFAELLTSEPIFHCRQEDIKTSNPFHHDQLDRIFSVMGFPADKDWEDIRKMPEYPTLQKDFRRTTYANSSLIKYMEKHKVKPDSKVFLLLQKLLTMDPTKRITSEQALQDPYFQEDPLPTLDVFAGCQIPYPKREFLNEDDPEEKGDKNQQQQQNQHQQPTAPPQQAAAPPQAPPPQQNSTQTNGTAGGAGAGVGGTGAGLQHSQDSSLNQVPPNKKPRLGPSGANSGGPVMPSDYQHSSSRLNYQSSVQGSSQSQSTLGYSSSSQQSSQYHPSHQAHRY
UniProt P10721, sequence (whole entry, unmodified, looked up): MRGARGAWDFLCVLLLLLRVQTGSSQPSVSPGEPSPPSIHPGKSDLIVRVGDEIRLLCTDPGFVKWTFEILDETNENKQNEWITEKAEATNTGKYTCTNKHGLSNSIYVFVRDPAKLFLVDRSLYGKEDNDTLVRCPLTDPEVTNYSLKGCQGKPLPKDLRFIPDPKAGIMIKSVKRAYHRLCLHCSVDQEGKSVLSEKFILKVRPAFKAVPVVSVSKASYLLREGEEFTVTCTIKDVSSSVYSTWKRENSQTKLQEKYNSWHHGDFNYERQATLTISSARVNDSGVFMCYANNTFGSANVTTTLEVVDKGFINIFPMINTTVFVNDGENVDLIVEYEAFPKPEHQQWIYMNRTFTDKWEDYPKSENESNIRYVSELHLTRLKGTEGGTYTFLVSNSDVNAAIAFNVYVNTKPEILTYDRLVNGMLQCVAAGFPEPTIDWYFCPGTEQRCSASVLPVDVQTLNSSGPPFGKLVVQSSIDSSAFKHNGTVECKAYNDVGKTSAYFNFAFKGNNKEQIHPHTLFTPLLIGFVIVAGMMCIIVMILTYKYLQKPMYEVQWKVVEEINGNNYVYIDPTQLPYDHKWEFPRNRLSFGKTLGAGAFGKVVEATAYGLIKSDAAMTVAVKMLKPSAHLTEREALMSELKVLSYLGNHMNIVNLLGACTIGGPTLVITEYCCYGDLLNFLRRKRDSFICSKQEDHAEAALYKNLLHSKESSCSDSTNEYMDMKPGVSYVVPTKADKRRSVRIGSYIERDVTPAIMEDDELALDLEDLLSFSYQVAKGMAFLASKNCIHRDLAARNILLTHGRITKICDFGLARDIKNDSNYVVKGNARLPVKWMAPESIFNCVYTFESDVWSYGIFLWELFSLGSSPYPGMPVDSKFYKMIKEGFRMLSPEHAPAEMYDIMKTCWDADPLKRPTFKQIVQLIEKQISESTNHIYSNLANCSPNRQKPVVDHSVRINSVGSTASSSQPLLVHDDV
UniProt P28482, sequence (whole entry, looked up): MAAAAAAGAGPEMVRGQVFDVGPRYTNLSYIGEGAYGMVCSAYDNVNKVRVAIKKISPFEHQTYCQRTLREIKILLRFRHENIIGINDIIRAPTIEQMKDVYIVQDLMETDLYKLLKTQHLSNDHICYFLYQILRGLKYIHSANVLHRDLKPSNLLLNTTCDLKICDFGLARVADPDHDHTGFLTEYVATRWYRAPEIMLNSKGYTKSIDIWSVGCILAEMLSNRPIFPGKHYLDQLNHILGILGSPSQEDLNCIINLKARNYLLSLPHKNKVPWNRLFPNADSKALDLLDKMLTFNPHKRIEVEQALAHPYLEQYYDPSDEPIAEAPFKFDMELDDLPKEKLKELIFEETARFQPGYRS
UniProt Q13177, sequence (whole entry, looked up): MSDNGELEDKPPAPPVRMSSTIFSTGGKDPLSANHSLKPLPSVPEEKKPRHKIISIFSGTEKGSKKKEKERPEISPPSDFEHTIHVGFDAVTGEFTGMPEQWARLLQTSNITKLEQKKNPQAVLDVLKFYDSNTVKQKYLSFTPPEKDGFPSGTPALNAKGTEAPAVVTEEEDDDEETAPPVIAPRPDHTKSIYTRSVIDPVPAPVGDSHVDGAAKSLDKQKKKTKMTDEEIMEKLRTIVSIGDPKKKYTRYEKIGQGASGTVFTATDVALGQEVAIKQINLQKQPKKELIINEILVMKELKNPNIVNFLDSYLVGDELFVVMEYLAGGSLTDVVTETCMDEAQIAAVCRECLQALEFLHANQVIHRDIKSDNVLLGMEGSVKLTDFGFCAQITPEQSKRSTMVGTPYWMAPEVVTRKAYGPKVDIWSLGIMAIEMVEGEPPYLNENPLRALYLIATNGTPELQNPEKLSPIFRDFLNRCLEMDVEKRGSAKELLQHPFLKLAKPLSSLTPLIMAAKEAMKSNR

Sample 1 — tested at: 1 µM
Structure (SMILES): O=C(O)[C@@H]1[C@@H](Cn2nnc3ccccc3c2=O)CC[C@H]1C(=O)c1ccc(OCCC2CCOCC2)cc1
target | effect on | technique | remaining binding [%]
KIT (Homo sapiens, UniProt P10721, A829P) | cell-free assay | competition with immobilised ligand | 90
PAK2 (Homo sapiens, UniProt Q13177) | cell-free assay | competition with immobilised ligand | 82
ALK (Homo sapiens, UniProt Q9UM73, C1156Y) | cell-free assay | competition with immobilised ligand | 100
STK35 (Homo sapiens, UniProt Q8TDR2) | cell-free assay | competition with immobilised ligand | 100
PRPF4B (Homo sapiens, UniProt Q13523) | cell-free assay | competition with immobilised ligand | 80
CDK19 (Homo sapiens, UniProt Q9BWU1) | – | competition binding | 100
EPHA5 (Homo sapiens, UniProt P54756) | cell-free assay | competition with immobilised ligand | 94
EPHA6 (Homo sapiens, UniProt Q9UF33) | cell-free assay | competition with immobilised ligand | 97
RET (Homo sapiens, UniProt P07949, M918T) | cell-free assay | competition with immobilised ligand | 100
MTOR (Homo sapiens, UniProt P42345) | cell-free assay | competition with immobilised ligand | 96
FRK (Homo sapiens, UniProt P42685) | cell-free assay | competition with immobilised ligand | 89
MAPK1 (Homo sapiens, UniProt P28482) | cell-free assay | competition with immobilised ligand | 93
COQ8A (Homo sapiens, UniProt Q8NI60) | cell-free assay | competition with immobilised ligand | 88
MAP2K7 (Homo sapiens, UniProt O14733) | cell-free assay | competition with immobilised ligand | 89
PAK4 (Homo sapiens, UniProt O96013) | cell-free assay | competition with immobilised ligand | 89
SYK (Homo sapiens, UniProt P43405) | cell-free assay | competition with immobilised ligand | 100
MAPK8 (Homo sapiens, UniProt P45983) | cell-free assay | competition with immobilised ligand | 100

Sample 2 — host: human; matrix: microsomes or S9; tested at: 2 µM; time: 0.5 h
SMILES | remaining compound
COc1cc(=O)n2c(c1C(=O)N1CCN(c3ccc(C)cc3)CC1)CCCC2 | > 99%
CCN(CC)CCCNc1oc(-c2ccco2)nc1S(=O)(=O)c1ccc2c(c1)OCCO2 | 41.9%
CC(=O)OC/C=C/CCCC/C=C/COC(C)=O | > 99.9%
CC(C)[C@@H](NS(=O)(=O)c1ccc(F)cc1)C(=O)O | 98.8%
Cc1ccc(C#N)c(NC(C)Cc2c(C)noc2C)n1 (centres unmarked) | 0.539%
COc1ccc(Cc2nc3c4cnn(-c5cc(Cl)ccc5Cl)c4ncn3n2)cc1 | 73.8%
C[S+]([O-])c1nc2ccc(F)cc2c(-n2ccnc2)c1-c1ccc(Cl)cc1Cl (centres unmarked) | > 100%
Cc1cc(-c2cc(=O)n(C)n2C(F)F)c(F)cc1Cl | 62.3%
Cc1nnc2c(Nc3cccc(CNC(=O)OC(C)(C)C)c3)nc3cc(C(=O)Nc4ccccc4)ccc3n12 | > 100%

Sample 3 — cell line: mouse MPNST tumor cells; technique: high-content nuclear imaging; item: cell number; tested at: 10 µM; time: 12 h; setting: mean of 2 replicates; relative to: plate mean; reading: higher = more cells
SMILES | nuclei count
Nc1ccc(C(=O)NCC(=O)O)cc1 | -0.165 z-score
CN(C)CCc1c[nH]c2ccc(C[C@H]3COC(=O)N3)cc12 | 1.41 z-score and -0.2 z-score
O=C1c2ccccc2C(Cc2ccnc(F)c2)(Cc2ccnc(F)c2)c2ccccc21 | -0.836 z-score
CCN(CC)CCOc1ccc(C(=C(Cl)c2ccccc2)c2ccccc2)cc1 | -5.14 z-score
CCN(CC)S(=O)(=O)Nc1cccc(-c2ccc3c(NC(=O)C4CC4)n[nH]c3c2)c1 | -3.46 z-score

Sample 4 — effect on: enzyme activity; action: inhibitor; tested at: 0.5 µM; relative to: control
Target: Proto-oncogene tyrosine-protein kinase receptor Ret (RET, Homo sapiens, UniProt P07949)
Compound | remaining activity [%]
O=c1cc(-c2cccc3c2Sc2ccccc2S3)oc(N2CCOCC2)c1 | 82.4
N#C/C(=C\c1ccc(O)c(O)c1)C(=O)NCc1ccccc1 | 108
CCN(CC)C(=O)c1ccc(Nc2nc(OCC3CCCCC3)c3[nH]cnc3n2)cc1 | 7.65
Ic1cccc(CSc2nnc(-c3ccncc3)o2)c1 | 103
O=C1c2ccccc2-c2n[nH]c3cccc1c23 | 34.2
COc1cc2ncnc(Nc3ccc(O)c(Br)c3)c2cc1OC | 21.4
Cc1cn(-c2cc(NC(=O)c3ccc(C)c(Nc4nccc(-c5cccnc5)n4)c3)cc(C(F)(F)F)c2)cn1 | 70.5
O=C(Nc1cccc(Nc2nccc(Nc3cccc(C(F)(F)F)c3)n2)c1)C1CC1 | 88.6
CCN(CC)CCNC(=O)c1c(C)[nH]c(/C=C2\C(=O)Nc3ccc(Cl)cc32)c1C | 2.47
Cc1nc2cc3nc(-c4cccs4)cnc3cc2n1C | 68.9
CN([C@@H](Cc1ccc(OS(=O)(=O)c2cccc3cnccc23)cc1)C(=O)N1CCN(c2ccccc2)CC1)S(=O)(=O)c1cccc2cnccc12 | 105
O=C1C(Cl)=C(N2C(=O)CCC2=O)C(=O)c2ccccc21 | 98
COc1cc2ncnc(Nc3cccc(Cl)c3)c2cc1OC | 35.3
CCOc1nc(NC(=O)Cc2cc(OC)ccc2OC)cc(N)c1C#N | 104
N#Cc1c(NC(=O)c2cccc3ccccc23)sc2c1CCCC2 | 105
Cc1cc2ncc(-c3ccccc3)nc2cc1C | 88
O=C(NC(NC(=S)Nc1ccc(F)c([N+](=O)[O-])c1)C(Cl)(Cl)Cl)C(c1ccccc1)c1ccccc1 (centres unmarked) | 103
Cn1nc2c3c(cccc31)C(=O)c1ccccc1-2 | 83.8
CN(C)C[C@H]1CCn2c(c(C3=C(c4cn(C)c5ccccc45)C(=O)NC3=O)c3ccccc32)C1 | 99.7
COc1cc2c(cc1OC)-c1[nH]nc(Nc3cccc(F)c3)c1C2 | 83.6
Nc1cccc(-c2cc3c(Oc4cccc(O)c4)ncnc3[nH]2)c1 | -0.229
c1ccc(-c2cnc(Nc3ccc(OCCN4CCCC4)cc3)s2)cc1 | 84.2
